Assay results pooled from the literature.
Every numbered part comes from another study and shows a few of its results, in no order. Positions count from the first letter of the parent shown.

Set 1
Target: CCNB1, cyclin fold, Cln2 fusion (human)
Technique: yeast growth competition, sequencing
Medium: yeast
Notes: weak parent motif
Baseline: not given
Direction: higher = stronger binding
Parent: CDC6 docking peptide (human); TLKGRRLVFDNQL
Change | normalised enrichment score
D10N | 1.78
G4Q | 0.499
G4C | 1.05
F9K | 0.836
K3L | -0.0102
K3T | 0.743

Set 2
Target: Hepatocyte nuclear factor 3-beta, forkhead domain (FOXA2, Homo sapiens, UniProt Q9Y261, residues 142-269)
Technique: protein-binding microarray
Form: double-stranded DNA, one strand shown
Medium: in vitro
Tested at: not given
Notes: k-mer, scored over probes, only values ≥0.25
Direction: higher = stronger binding
Construct (chain): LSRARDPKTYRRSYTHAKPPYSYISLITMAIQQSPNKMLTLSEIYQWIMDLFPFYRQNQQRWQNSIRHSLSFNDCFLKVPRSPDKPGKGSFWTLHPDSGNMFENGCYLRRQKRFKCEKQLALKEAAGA
Oligonucleotide | E-score
CAATTATG | 0.312
TATCCGCA | 0.302
ATTGATTG | 0.309
ATTAGGTA | 0.269
AGTAACAA | 0.303

Set 3
Target: Interferon regulatory factor 7, full length, phosphomimetic (IRF7, Homo sapiens, UniProt Q92985, residues 1-503, S471D/S472D/S475D/S476D/S477D/S483D/S484D/S487D)
Technique: protein-binding microarray
Form: double-stranded DNA, one strand shown
Medium: in vitro
Tested at: 2200 nM top
Notes: 60-bp whole probe
With: salmon DNA 0.4 mg/ml
Baseline: random background probes
Direction: higher = stronger binding
Shared flanks, not repeated: GCCTAGCAC … GTCTTGATTCGCTTGACGCTGCTG
Residues (chain): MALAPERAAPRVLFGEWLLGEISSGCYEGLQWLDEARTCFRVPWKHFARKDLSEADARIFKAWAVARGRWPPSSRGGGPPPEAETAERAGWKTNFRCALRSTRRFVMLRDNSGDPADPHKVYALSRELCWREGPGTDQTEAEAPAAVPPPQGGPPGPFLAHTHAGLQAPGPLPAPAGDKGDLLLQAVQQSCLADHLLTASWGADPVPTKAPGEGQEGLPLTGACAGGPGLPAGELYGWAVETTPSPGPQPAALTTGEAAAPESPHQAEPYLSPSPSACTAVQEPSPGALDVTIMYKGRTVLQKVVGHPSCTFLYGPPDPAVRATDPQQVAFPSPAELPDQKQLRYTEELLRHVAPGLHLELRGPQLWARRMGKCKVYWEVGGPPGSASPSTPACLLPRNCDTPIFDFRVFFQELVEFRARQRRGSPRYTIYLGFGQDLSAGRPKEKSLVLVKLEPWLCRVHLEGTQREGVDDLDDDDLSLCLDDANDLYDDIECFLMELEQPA
Oligonucleotide | fitted relative affinity [z-score]
TTAGCTCTCCTTTTCCTTTAGTGCTAG | 2.06
GACGGTATCGGACTGGAGACGTGCTAG | -0.266
TTAGGTCTCCTTCTCCTTGAGTGCTAG | 0.967
TTAGGTTTCGATTTTCGGTTAGTGCTA | 12.4
GACGGTTTCGGTTTCGGGTCGTGCTAG | 16.7
CCTTGTACGTCGTTTCCCAAGGTGCTA | 1.57

Mixed results
Substance | target | assay | system | conditions | how to read | measurement | value
PhoQ, residues 284 288 289 292 302 303 SMMNNA | PhoP, residues 12 14 15 18 19 SPWRL (Escherichia coli, UniProt P23836) | Sort-seq, item: YFP reporter | E. coli | PhoQ-PhoP variant library, with: 10 µM Mg2+ | baseline: high Mg2+ state, higher = stronger signaling | fold induction | 0.857
